Results pooled from the literature.
Each numbered part is a random draw from the data of one study; scales do not carry over between parts. Substitutions count along the parent as printed.

Set 1 — target: CCND1, cyclin fold, Cln2 fusion (human); technique: yeast growth competition, sequencing; sample: yeast; notes: weak parent motif; reference: not given; reading: higher = stronger binding; quantity: normalised enrichment score
Starting sequence: CDC6 docking peptide (human); TLKGRRLVFDNQL
Variant = TLKGRRLVSDNQL [F9S]; result = -0.0303
Variant = TLKGDRLVFDNQL [R5D]; result = -0.000825
Variant = TLKGRRMVFDNQL [L7M]; result = 0.106
Variant = TLKGRRIVFDNQL [L7I]; result = 0.505
Variant = TLKGRRLVFDNIL [Q12I]; result = 0.608
Variant = TLKGRRLVFDNQD [L13D]; result = 0.693
Variant = TLKGRRLVFDLQL [N11L]; result = 0.372
Variant = MLKGRRLVFDNQL [T1M]; result = 0.108
Variant = TLKGRPLVFDNQL [R6P]; result = 2.17
Variant = TLKGRRLVFDNCL [Q12C]; result = 0.0816
Variant = TLKGRALVFDNQL [R6A]; result = 0.686
Variant = TLKGRRLVFDNTL [Q12T]; result = 0.472
Variant = TLKGRRLIFDNQL [V8I]; result = 0.361
Variant = TLKGRRLVFDIQL [N11I]; result = 0.48
Variant = TLKFRRLVFDNQL [G4F]; result = -0.19
Variant = TLKGRYLVFDNQL [R6Y]; result = 0.464
Variant = TLKGKRLVFDNQL [R5K]; result = 0.291
Variant = TLKGRRLVFDNQM [L13M]; result = 0.024
Variant = TLNGRRLVFDNQL [K3N]; result = 0.354
Variant = TLKGRRLVFDNQG [L13G]; result = 0.555
Variant = TLKGRRLVHDNQL [F9H]; result = -0.136
Variant = TLKGRRLVFDNRL [Q12R]; result = -0.145
Variant = TLKGRRLVFDWQL [N11W]; result = 0.939
Variant = TLKGRRLVNDNQL [F9N]; result = -0.211
Variant = TLKGRRLFFDNQL [V8F]; result = 0.2

Set 2 — technique: yeast two-hybrid; sample: yeast; notes: mostly zero background; reference: not given; reading: higher = stronger interaction; quantity: lacZ reporter activity
Sequence: MDDQGCPRCKTTKYRNPSLKLMVNVCGHTLCESCVDLLFVRGAGNCPECGTPLRKSNFRV (MNAT1 RING domain (UniProt P51948))
target = UBE2S UBC core domain (UniProt Q16763); result = 0
target = UBE2G1 UBC core domain (UniProt P62253); result = 0
target = UBE2B UBC core domain (UniProt P63146); result = 0
target = UBE2T UBC core domain (UniProt Q9NPD8); result = 0
target = UBE2J1 UBC core domain (UniProt Q9Y385); result = 0
target = UBE2I UBC core domain (UniProt P63279); result = 0
target = UBE2C UBC core domain (UniProt O00762); result = 0
target = UBE2M UBC core domain (UniProt P61081); result = 0
target = UBE2E3 UBC core domain (UniProt Q969T4); result = 0
target = UBE2R2 UBC core domain (UniProt Q712K3); result = 0
target = BIRC6 UBC core domain (UniProt Q9NR09); result = 0
target = UBE2L3 UBC core domain (UniProt P68036); result = 0
target = UBE2O UBC core domain (UniProt Q9C0C9); result = 0
target = UBE2J2 UBC core domain (UniProt Q8N2K1); result = 0
target = UBE2Z UBC core domain (UniProt Q9H832); result = 0

Set 3 — technique: RNA Bind-n-Seq; form: RNA; sample: in vitro; concentration: 365 nM; reference: no-protein control; reading: higher = stronger binding; quantity: RBNS enrichment (R)
Target: RNA binding protein fox-1 homolog 2, RRM domain, GST-SBP tag (RBFOX2, Homo sapiens, UniProt O43251-10, residues 100-194)
Notes: natural RNA segment, single round, ends assumed
Residues (chain): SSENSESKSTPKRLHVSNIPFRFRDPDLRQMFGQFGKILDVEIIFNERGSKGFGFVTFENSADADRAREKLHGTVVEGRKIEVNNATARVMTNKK
Oligonucleotide = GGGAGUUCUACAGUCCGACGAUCCAGCAUGUGUCCUGAAGACGUUCAUAGAUUUAUAGGAAAUAAAGCCAAAUGUAGCUCAUACCUCUUUAUAAAACUAAACUGUUGUUAGAUAAAAUGAGAAGAGACCAUUCUGGAAUUCUCGGGUGCCAA; result = 9.15
Oligonucleotide = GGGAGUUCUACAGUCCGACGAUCUUUGGGUUUUAACCAAAUAACCGGUCCAGGAGUGAGCAGCUCCGUUCUGUCAGAUGCUACUCCAAAUGUUACCAGAACGAUGACAAAAGGGGAGACGCUCUAUUUUUUCAUGGAAUUCUCGGGUGCCAA; result = 0.33
Oligonucleotide = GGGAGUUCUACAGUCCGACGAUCGAAGUUGACAAGACACAUCUUGAGUAUGGCUGGCACUGGUUCCUCCAUCAAGAACCAAGUUCACCUUCAGCUCCUGUGGCCCCGCCCCCAGGCUGGAGUCAGAAAUGUUUUGGAAUUCUCGGGUGCCAA; result = 0.245
Oligonucleotide = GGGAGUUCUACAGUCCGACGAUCACUUUGAACAUUCGUUAUGGGGAAAACAUCCUUUAACUUCGGGGUCGUCUGCCAGAGCAGGGUCUGGGAGGGUCCAUGCAGUUCCCGCUGGUGUGGAGGGAAAUGCCCUGUGGAAUUCUCGGGUGCCAA; result = 0.487
Oligonucleotide = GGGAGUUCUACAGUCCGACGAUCCACUAAGCCAGGCACCGGGCAGAAGCUGGGCCUUCCGCCUCCCUUGGAUGGGGUCAAGAGGCCAGGCCUGGCACAUUUUGGAGUGUCCUGGCUACCAGCUCUCACCUACAUGGAAUUCUCGGGUGCCAA; result = 0.342
Oligonucleotide = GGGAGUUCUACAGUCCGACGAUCCACAGGGCAGGUAUGUGGGAGGCUGGGCUGCUUAGUGUCUUCUAGUCACCUCUGCUUGGGCUGAUUGACAGAGGUCAGUCAUUACAGCCCCUUAUGCCUCUUCCAUGGGAUGGAAUUCUCGGGUGCCAA; result = 0.906
Oligonucleotide = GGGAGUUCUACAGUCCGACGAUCGAUUGGGAGAGGAGGCAGCUUAGCUGGAAGCUGUGCCCAUCUUACUGUCACUGGAGAAUAGGAUGUCAGAGCUGGGCAGGACUGGUACCCAUCAUUUGCAGUUUGCAUGUUGGAAUUCUCGGGUGCCAA; result = 12.2
Oligonucleotide = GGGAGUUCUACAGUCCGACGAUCAGAAGCCUAGAUAACUAAUCUGCUUUUAAUCACGAUGUUUUAAUCUACCUCUGUCUCUUUAACCAUGCUGUCUCUGGACUGAGCAAGAGGGAGGAGGGAGCCUGCUCACCUGGAAUUCUCGGGUGCCAA; result = 0.255
Oligonucleotide = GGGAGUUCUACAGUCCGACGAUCGAUUUUGCUGAGCUGCAAAGGUAUCUGUCAUAAAAUAUGGUCCCCAGGAAAAGAAUCUCUGUGCUCUAAAUCUCGGUCAGAGCUGUGGCCUCCCCCUUGCCUUUAACCUCUGGAAUUCUCGGGUGCCAA; result = 0.448
Oligonucleotide = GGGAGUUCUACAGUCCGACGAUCAGCUGAAUAGUUUGCACAAGAACGGGAUGCUAGUAAAAACAUAAAAAUAACUCGAAUCAAAUUCCAAUUCCAGUGCCUCCUGUUUUCAAUACCAAGCAGGCAAUCCGCAUUGGAAUUCUCGGGUGCCAA; result = 0.575
Oligonucleotide = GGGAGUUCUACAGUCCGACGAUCAAAUGUUUUGGAGAGCGGGAGGUUUCCCCCAAUCUCCUCCAAGUUCUUCUCCCUCCAACCAGAGUUGUGUCUAACUUUAGGCAUCUUUUAAUAAAUGUCAUUGCGACUCUUGGAAUUCUCGGGUGCCAA; result = 0.234
Oligonucleotide = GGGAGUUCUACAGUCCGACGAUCGCUUUUCUUUGAGUCCAUCCCCCCAAAGUCAGCCUUUACUAGUAGAGGAACAAGACCUGAGCGCUGUCCCUGGGGAACCUCACUAGUCAUUCCUUUCCCUUGAUGGGGCUUGGAAUUCUCGGGUGCCAA; result = 0.51

Set 4 — technique: DHFR PCA, deep sequencing; sample: yeast; together with: (+)-ABA 0 µM; reference: wild-type fitted maximum; reading: higher = stronger binding; quantity: relative binding score
Target: ABI1, truncated, D143A, DHFR fusion (Arabidopsis thaliana)
Notes: methotrexate growth selection, single substitutions
Starting sequence: PYL1, truncated, DHFR fusion (Arabidopsis thaliana); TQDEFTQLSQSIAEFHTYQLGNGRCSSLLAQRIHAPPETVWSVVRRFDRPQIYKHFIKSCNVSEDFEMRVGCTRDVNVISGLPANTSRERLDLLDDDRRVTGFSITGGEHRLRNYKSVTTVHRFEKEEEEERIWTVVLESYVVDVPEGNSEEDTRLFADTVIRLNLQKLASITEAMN
Variant = D75K; result = 10.2%
Variant = K168R; result = 22.2%
Variant = P37V; result = 15.3%
Variant = G108I; result = -9.12%
Variant = A13F; result = 5.66%
Variant = G107N; result = 11.4%
Variant = Q10G; result = 30.1%
Variant = W134R; result = 4.8%
Variant = Q10P; result = 25.8%
Variant = P37W; result = -3.47%
Variant = G23V; result = 1.74%
Variant = T86S; result = 22.7%
Variant = V100T; result = -4.52%
Variant = K116R; result = 39.5%
Variant = V70E; result = 5.47%
Variant = T39C; result = 14.5%
Variant = V100F; result = -3.1%
Variant = R113Q; result = 46.2%
Variant = V161L; result = 64.9%

Set 5 — technique: RNA Bind-n-Seq; form: RNA; sample: in vitro; concentration: 200 nM; notes: whole 134-nt RNA, ends assumed; together with: 150 mM LiCl; reference: input library; reading: higher = stronger binding; quantity: log2 enrichment; library: 7-deaza-guanosine replaces G
Target: Ras GTPase-activating protein-binding protein 1, full length (G3BP1, Homo sapiens, UniProt Q13283)
Oligonucleotide = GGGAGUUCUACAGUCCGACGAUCGCAGGAAGUAAAAUCAAAUGGAAAUGCUUCGGAUAGUGGCAGGGGUGGGGGUUGCUAAGGAAAGGGUGGGAUGGGAGUGGGUAAAGAGUUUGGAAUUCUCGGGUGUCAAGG; result = -0.174
Oligonucleotide = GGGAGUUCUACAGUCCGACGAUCUCCUGUGCUACACAUCGUAUGUACCGAAUCGGGGCCCCCGGGCCCCCGGGCCCCCGGGGAAAGUAUUAUGUUACGCCGUUCGGAUCUGCAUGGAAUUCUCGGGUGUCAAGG; result = -1.36
Oligonucleotide = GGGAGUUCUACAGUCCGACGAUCCACAGACAACACGCACCCACACAGACACAGAGGGAAGGGGUUGGGAUGGGGACAGGGUACACAGCAGGGCGGGGUAGGACCCCAGCCCCUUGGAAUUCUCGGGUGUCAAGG; result = 0.081
Oligonucleotide = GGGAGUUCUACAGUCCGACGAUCCACAGACAACACGCACCCACACAGACACAGCGGGAAGGGGUUGGGAUGGGGACAGGGUGCACAGCAGGGCGGGGUAGGACCCCAGCCCCUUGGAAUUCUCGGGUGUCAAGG; result = -0.474
Oligonucleotide = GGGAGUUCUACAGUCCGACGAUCGCAGGAAGUAAAAACAAAUGGAAAUGCUUCGGAAAGUGGCAGGGGUGGGGGUUGCUAAGGAAAGGGUGGGAUGGGAGUGGGUAAAGAGUUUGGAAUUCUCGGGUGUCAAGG; result = 0.646
Oligonucleotide = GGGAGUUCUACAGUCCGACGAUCUGGCCCUGGUGGCAUACGGGGAGGAAGAGGUGGCCUCAUGGAUCGUGGUGGUCCCGGUGGAAUGUUCAGAGGUGGCCGUGGUGGAGACAGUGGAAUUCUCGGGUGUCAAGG; result = 0.35
Oligonucleotide = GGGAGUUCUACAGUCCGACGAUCCUGUGCUACACAUCGUAUGUACCGAAUCGGGUUUUUUUGGGUUUUUUUGGGAAAAAAAGGGAAAGUAUUAUGUUACGCCGUUCGGAUCUGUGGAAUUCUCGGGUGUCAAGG; result = 0.182
Oligonucleotide = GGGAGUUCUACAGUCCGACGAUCUGGACCCGGAGCUGAUGCAGAAGUUCAGCUGCCUGGGCACCACCGACAAGGACGUGCUCAUCUCCGAGUUCCAGAGGCUGCUCGGCUUCCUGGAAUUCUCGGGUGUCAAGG; result = -1.17
Oligonucleotide = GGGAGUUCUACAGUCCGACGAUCUGGCCCUGGUGGCAUGCGGGGAGGAAGAGGUGGCCUCAUGGAGCGUGGUGGUCCCGGUGGAAUGUUCAGAGGUGGCCGUGGUGGAGACAGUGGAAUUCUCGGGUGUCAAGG; result = -0.175
Oligonucleotide = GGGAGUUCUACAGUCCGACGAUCUGGGAGGUGGAUUUUGUUUAUUUUUUUAGCGCAUUUCCAGGGGUGGGAAUUUUUUUUUAAUAUGUGUCAUGAAUAAAGUUGUUUUUGAAAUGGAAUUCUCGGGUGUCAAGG; result = 0.186
Oligonucleotide = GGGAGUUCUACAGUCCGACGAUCUGGGAGGUGGAUUUUGUUUAUUUUUUUAGCUCAUUUCCAGGGGUGGGAAUUUUUUUUUAAUAUGUGUCAUGAAUAAAGUUGUUUCUGAAAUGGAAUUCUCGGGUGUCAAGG; result = -0.421

Excerpt of the above (set 2):
target = UBE2Z UBC core domain (UniProt Q9H832); result = 0
target = UBE2J2 UBC core domain (UniProt Q8N2K1); result = 0
target = BIRC6 UBC core domain (UniProt Q9NR09); result = 0
target = UBE2R2 UBC core domain (UniProt Q712K3); result = 0
target = UBE2I UBC core domain (UniProt P63279); result = 0
target = UBE2T UBC core domain (UniProt Q9NPD8); result = 0
target = UBE2L3 UBC core domain (UniProt P68036); result = 0
target = UBE2E3 UBC core domain (UniProt Q969T4); result = 0
